Results collected from several papers.
A part holds a random share of what one study measured. Positions count from the first letter of the parent shown.

Set 1 — method: RNA Bind-n-Seq; form: RNA; sample: in vitro; concentration: 365 nM; baseline: no-protein control; reading: higher = stronger binding
Target: RNA binding protein fox-1 homolog 2, RRM domain, GST-SBP tag (RBFOX2, Homo sapiens, UniProt O43251-10, residues 100-194)
Notes: natural RNA segment, single round, ends assumed
Constant ends, left off below: GGGAGUUCUACAGUCCGACGAUC … UGGAAUUCUCGGGUGCCAA
Construct (chain): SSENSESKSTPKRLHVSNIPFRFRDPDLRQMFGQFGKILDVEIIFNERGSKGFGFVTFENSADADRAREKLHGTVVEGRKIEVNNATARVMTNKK
Strand | RBNS enrichment (R)
GGUGAUGGGUAAGAUUUUUGAAAGCCUUAUAUUUUUUGAUUUUGUUGUCUAGUUUAAUCCUACCUUUAAUAGUUGUGUUUGGUAAAAUUCCCACUUGAAUGUGACACUGA | 2.57
GAGGGUUAUUUGCUUUUUUAUCUUCCUGGCAUAAUUUCCAUUUUAUUCUUCUGAGUGUCUAUGUUAACUUCCCUCUAUCCCGCUUAUAAAAAAAUUCUCCAACAAAAAUA | 0.647
UAGCCGGUGGGUGAGGAGAUUCCCACCUUCCAUAGCCUCCAAACAUGUUCCCAAGGCCCCACUUUCAAGAAUCAGACAGCAGGAAGCCAUAGAUGCUGGCUGGGUUCCAG | 0.428
UUGAUGGCUGCGAAGACCUACCCUCCGUUUUUCUACUAGAUAGGAGGAUGGUAGAAGUUUGGCUGCUGUCAUAACAUCCAGAGCUUUGUCGUAUUUGGCACACAGCAGAG | 0.191
GAUCCUCAAGGACCUGUAAUUGUGUGGUAUUUAAAAUUAAAAUAACAUUAUUUUUAUUUUGACUUUUUUUCAAACAGUAAGAAUAAUAUAUCAGCAGCAUGUAUCUGCCA | 14
AAGACACAGUGAGGGACAGCCCAGCUGCAAUAAAAGGGAUUUUCUAUGUCAGAAGCAGCAGGCUUUGCUUCAGCUUGAGUUGGAGCCGUGUGAGUCUCAGGCCAGGCCCU | 0.318
UGCAGUGGCAGGCGUGUUUGAGCGAGCCUCCUUCCUUAUUCAUAGGGAUUCAGUGUUGACUGUUCCCUGGUGUCCCCGCUGUCCUGUGUCGUCUGGUAUAGAAAGCGCAU | 10.5
UCGCUUGGAAGUGGUGGCCAUGUGGCCGUUAUACAGCCUUUGCUGAUAUGGCCCUCAUCGUCGUGUAAUGUUUGUGCACCUCCCUGCUGUGCAGGCAGCUUGGAGUGCAG | 1.32
CCCCAGUGUGAGUGGUCUCCAUGGCAGUUUGGAGCCAACGAGGAUCGGGAGGGGAGCAGUAGCACUAUGGGAGGGAGAGAGGCCUUCCAUAGCCUCCUCCCCAGGACCUG | 0.892
AAAAAAAUGUGCCUCUGGUGAAUUAUCCAUCCUUUUUUUAAAAUGUUAAACUGGUCUUUGAGAAAAGAAUAGUGCAGAUAAGAGCAGCCAAGGACUUCAAAGCUUGUUGA | 0.826
CCCUGACUCCCAUGCUGUGCUUGCCGCUCUGAAACAAACAGAGGCUGGAACUUUGUGGUCCUUGCCGAGUUUUGUAGGGGUCACUGUCACAUGCUUGUGCCCUGGAAGCC | 0.355
GGUUCCUCUAAUAAGGACCAGCCUUCUACCCUGGUGGAGACCAAAGGCCUCCUCCCGUUUCUCAUCAGCUUGCCUGCUACCACUUUGCCUUCUGGCCUCCAGCUGGGCCA | 0.855

Set 2 — target: ATF1, bZIP domain (human); method: DHFR protein complementation; sample: yeast; baseline: wild-type JUN-FOS pair; reading: higher = stronger binding
Notes: single substitutions, most at no-binding floor
Starting sequence: JUN, bZIP domain (human); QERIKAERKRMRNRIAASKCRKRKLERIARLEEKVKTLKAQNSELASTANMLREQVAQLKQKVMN; partner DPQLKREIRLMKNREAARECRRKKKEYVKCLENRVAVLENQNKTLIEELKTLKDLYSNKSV
Substitution | binding fitness [natural log]
V35M | -1.55
K34E | -1.48
L31N | -1.57
M51P | -1.47
A49N | -1.6
K34M | -1.41
R30L | -1.46
R53V | -1.42
S47R | -1.52
S43N | -1.58
E32Q | -1.49
A29M | -1.48
T37G | -1.5
E54V | -1.52
L38Y | -1.47
E33V | -1.53
S43A | -1.44
E32P | -1.57
K39C | -1.56
L52P | -1.55

Set 3 — method: protein binding microarray; form: double-stranded DNA, one strand shown; sample: in vitro; concentration: not given; baseline: not given; reading: higher = stronger binding
Target: Histone acetyltransferase KAT6A, both winged helices, GST fusion (KAT6A, Homo sapiens, UniProt Q92794, residues 1-181)
Notes: 8-mer, flanks averaged, mean of 2 arrays, mostly near background
Construct (chain): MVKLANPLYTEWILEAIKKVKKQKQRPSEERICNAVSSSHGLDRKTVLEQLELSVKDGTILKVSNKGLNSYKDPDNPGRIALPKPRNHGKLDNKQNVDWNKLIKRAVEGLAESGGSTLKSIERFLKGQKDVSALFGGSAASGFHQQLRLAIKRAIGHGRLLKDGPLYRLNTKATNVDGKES
Strand | E-score
ATCCGAGG | -0.056
CCAGGGGG | -0.203
AGTAGGCC | -0.112
CCAGTGTA | -0.132
GGTGAGAC | -0.0804
CGATGGTA | 0.0627
TAAATTTA | -0.0669
AACATTTA | 0.0731
CTGCAACC | -0.0686
GACTTAGC | -0.07
AAATGAGT | -0.0783
TCGGCCAA | 0.0921
AAGTTATC | -0.0952
CCGATCTC | 0.0914
CAAGGGCA | -0.203
AGGCGATG | 0.0262
ATGTAATC | -0.124
AGTCGCCG | 0.291
GCAGCCTA | -0.144
ATATAGCC | -0.105

Set 4 — target: CCNE1, cyclin fold, Cln2 fusion (human); method: yeast growth competition, sequencing; sample: yeast; notes: weak parent motif; baseline: not given; reading: higher = stronger binding
Starting sequence: SLBP docking peptide (human); ARYKRKLLINDFG
Substitution | normalised enrichment score
N10Q | 0.474
K4A | 0.478
R5D | 0.109
Y3F | 0.0725
L7E | 0.0822
A1L | -0.1
L7F | 0.57
L8F | 2.92
G13E | 1.18
N10G | 1.65
I9V | 0.588
L8Q | 0.31
G13P | 0.909
A1Y | 0.826
R5T | 0.88
G13D | 0.272
A1Q | -0.652
R2N | 0.641
Y3G | 0.272
G13S | -0.374
D11P | 1.84
K6W | 1.47
I9T | 0.746
D11Y | 1.68
A1E | 0.335

Set 5 — method: RNA Bind-n-Seq; form: RNA; sample: in vitro; concentration: 100 nM; baseline: input RNA pool; reading: higher = stronger binding
Target: RING finger protein unkempt homolog, zinc fingers 1-6, SBP tag (UNK, Homo sapiens, UniProt Q9C0B0, residues 30-357)
UniProt Q9C0B0, sequence (30-357, looked up): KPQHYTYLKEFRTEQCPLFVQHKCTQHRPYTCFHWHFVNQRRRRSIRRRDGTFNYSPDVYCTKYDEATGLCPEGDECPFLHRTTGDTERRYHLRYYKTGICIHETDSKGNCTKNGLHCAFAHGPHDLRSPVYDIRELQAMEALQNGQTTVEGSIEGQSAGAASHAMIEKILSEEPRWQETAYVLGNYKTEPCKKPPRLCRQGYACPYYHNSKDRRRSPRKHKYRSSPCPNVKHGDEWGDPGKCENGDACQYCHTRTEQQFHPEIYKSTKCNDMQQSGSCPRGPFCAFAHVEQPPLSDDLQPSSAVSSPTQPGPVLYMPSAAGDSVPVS
Notes: RNA with constant flanks, vertebrate orthologous sites, ends assumed
Constant ends, left off below: GGGAGUUCUACAGUCCGACGAUC … CAACAGAGGAUUGAGCAUCA
Strand | bound/input enrichment [ratio]
AGGAAAUGUUAGCUGCUAAUCCCCAGGAACGUCCAGAUGCUUUUGAACUUGAACUGCGAUUAGUCAAAAUUGCAUACAAAGACUGCAACUGGGAUACGUGAUAUAUACUUUUUAAAAAAA | 0.735
AGAAAGUUACAGGCCAGACUCUGAAAGUAGGAGCACAGGAUCCUGGUUAUCAUCAUCUCUGAGGAACAGAUGCACACCUCUCUUUUCCAGACGAAGAAGAGAAGGAAGAGAUGAAUCCUC | 0.277
CCUACAAUAAUGAAAACUUACCGGAAUUUUUUUAUUUUUCAUCUUCCCCUUAGACCUACUUAGUCUUUUUCCCCCAGGCAGAUCAUUCUGAGUGUGCGAGUGUGUGUGCACAUGUUACAG | 2.33
AUAUUCAAUCAUGGAGAAAAAGAUAUUAAAAUAAUUUCGUGGCACUGGUAUUAAUUUAUUAGUUUUACAAGUGUUAGGGUUCUUGUUUACAUACAACAGAAACUGGCUCGUAAUUAAAGA | 0.377
UGAGGGGGAGAUUUCUGUGCUUUCUCAUAUUUAAUUUCCUCUUAUUAAGAUAUUCCAACCUAGAGUUUUUGAUGGAACUGAUAUAUUGACAGUUCUCACCUAAGUCCUUUUAUAAAGAAU | 1.33
UGUGCUCAUGUAUAGUAAUUAGAGUGGGUUGUCCCUCUACUGCCAAGAAGAAAUCCCAGAUAGAUUCCUUUCAUGUCGGAUUAUACUGUUCUGAUUUUAUUUUCUAUUAUUUUUCUUAUG | 0.85
CCUCUAGUUCUUAAGAACCAACACUCUUAAAAGAUUUAGGAAGAAGUUUACGACAUAAUCUAGUUUACGAAGAAAACUUGUGCUAGAAUACUUUUUAAAAAUAAUUUUUGAAUACCAUUA | 0.532
CUUAAUUAGAAGGUAGCAUACGUUUCAUAAAGAAGAGUCUUUAUAAUUUUAUUUGUCAUAUAGUAUUUUGGAAUUUGUAUAAUGAGGAUGUUUAGAAGCCGUAUCAAUGGCUUUUUUAAC | 0.73
UACCUUGCUGUAUGGUAUGAUAAACAUUCUUACAUAUUUAUCAGAUGUUGAUAAACUGUUAUCCCUUAACCACUUUUUAUAUGUUUCCUAUUUUUUGAAAUUCCAGUGUAUCUGCCAUAA | 0.869
CUUUUUAAGAUUUGGACCGAAUCAGGGAGCUAGCAAAAGCAAAGCAGACUUGUAAAAGUAUAGCCAUAUGCAGCUGCCCAACAACAGUUCUACCACUAGCAGCUGUGUUAAAGUAUUUAU | 0.586
UUCAAGCACAACUGACUGGUUCACAGCAUCCCUUACAUAGUUAUCUAUCAAGUGCAGGUGUGGUUAAUUUUCAGGAAACAAGCAGGCAGUCAUCUUUAUCCUGUAGCCCAAUUGGAGAUU | 2.11
